Measurements from different studies.
Compare with care: the assays were run in different laboratories.
Organism: Influenza A virus

SMILES = CC1=CCC[C@H](C)[C@@]12CC[C@@H](C(C)(C)O)C2; test system = MDCK, A/PR/8/34 (H1N1); scale = relative to: CC50 over IC50; endpoint = selectivity index; result = 3.3
SMILES = CC(C)C1=CC2=C(C=O)C[C@@H]3[C@](C)(CCC[C@@]3(C)C(=O)OCC#CCN3CCOCC3)[C@H]2CC1; test system = MDCK, A/Puerto Rico/8/34 (H1N1); scale = relative to: CC50 over IC50; endpoint = selectivity index; result = 3.62
SMILES = C=CC(=O)Nc1cccc2c1cc(C)n2-c1nc2c(c(NCc3ccccc3)n1)CCCC2; test system = MDCK, A/WS/33 (H1N1); setting = 0.25 µM, 24 h, infected cells; endpoint = viability; result = 0%
SMILES = N=C(N)N1CC23C4CCC5C4C4C2CCC4C53C1; assay = viral replication; test system = MDCK, A/PR/8/34 (H1N1); endpoint = EC50; result = 1.3 µM
SMILES = CC(C)C1=CC2=CC[C@@H]3[C@](C)(CCC[C@@]3(C)C(=O)OCC#CCN3CCOCC3)[C@H]2CC1; test system = MDCK, A/Puerto Rico/8/34 (H1N1); scale = relative to: CC50 over IC50; endpoint = selectivity index; result = 0.24
SMILES = CN(C)CC12C3CCC4C3C3C(CCC31)C42; assay = viral replication; test system = MDCK, H1N1 A/PR/8/34; endpoint = EC50; result = > 100 µM
SMILES = CCN(CC)CC#CCOC(=O)[C@]1(C)CCC[C@@]2(C)[C@H]1CC=C1C=C(C(C)C)CC[C@@H]12; test system = MDCK, A/Puerto Rico/8/34 (H1N1); scale = relative to: CC50 over IC50; endpoint = selectivity index; result = 1.9
SMILES = Cc1ccccc1-c1nnn(C23CC4CC(CC(C4)C2)C3)n1; test system = A/Puerto Rico/8/34 (H1N1); scale = relative to: CC50 over IC50; endpoint = selectivity index; result = 1
SMILES = CCN(CC)CC#CCOC(=O)[C@]1(C)CCC[C@@]2(C)[C@H]1CC(C=O)=C1C=C(C(C)C)CC[C@@H]12; test system = MDCK, A/Puerto Rico/8/34 (H1N1); scale = relative to: CC50 over IC50; endpoint = selectivity index; result = 9.89
SMILES = CC(C)=CCC[C@H](C)c1ccc(C)cc1; test system = MDCK, A/Shenzhen/203/2001 (H3N2); scale = relative to: CC50 over IC50; endpoint = selectivity index; result = 6.2
SMILES = CC(C)C1=C[C@@]23CC[C@@H]4[C@](C)(CCC[C@@]4(C)C(=O)OCC#CCN4CCOCC4)[C@H]2C[C@@H]1[C@H]1C(=O)CCC(=O)[C@H]13; test system = MDCK, A/Puerto Rico/8/34 (H1N1); scale = relative to: CC50 over IC50; endpoint = selectivity index; result = 1.65
SMILES = CCN(CC)CC12C3CCC4C3C3C(CCC31)C42; assay = viral replication; test system = MDCK, H3N2 A/HK/7/87; endpoint = EC50; result = > 100 µM
SMILES = C=CCCCOP(=O)(O)Oc1c2c(c(OP(=O)(O)OCCCC=C)c3c1C1CC3c3cc4c(cc31)C1CC4c3ccccc31)C1CC2c2cc3c(cc21)C1CC3c2ccccc21; assay = viral replication; test system = Caco-2; endpoint = IC50; result = 34.5 µM
SMILES = CC(=O)OC[C@H]1O[C@@H](Oc2cc(C)c3c(c2)C(=O)c2cccc(O)c2C3=O)[C@H](OC(C)=O)[C@@H](OC(C)=O)[C@@H]1OC(C)=O; assay = viral production, time-of-addition; setting = 50 µM; endpoint = inhibition; result = 60%
SMILES = CCC1(CC)C2CC3CC(C2)CC1(N(C)C)C3; assay = viral replication; test system = A/Ishikawa/7/82 (H3N2); endpoint = EC50; result = > 100 µM
